Published values gathered from unrelated publications.
Numbered parts are unrelated; each lists some results of a single study. Changes are numbered by the printed parent chain.

Series 1 — technique: RNA Bind-n-Seq; form: RNA; matrix: in vitro; tested at: 365 nM; relative to: no-protein control; direction: higher = stronger binding; quantity: RBNS enrichment (R)
Target: RNA binding protein fox-1 homolog 2, RRM domain, GST-SBP tag (RBFOX2, Homo sapiens, UniProt O43251-10, residues 100-194)
Notes: natural RNA segment, single round, ends assumed
All sequences stand within: GGGAGUUCUACAGUCCGACGAUC … UGGAAUUCUCGGGUGCCAA
Construct (chain): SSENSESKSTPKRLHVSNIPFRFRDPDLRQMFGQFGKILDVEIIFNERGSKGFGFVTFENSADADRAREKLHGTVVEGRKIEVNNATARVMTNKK
UGUAGACCCUGCACAAUCUCUUGGUGCUAUCUAGCCAUUACCCCCAUUUUUUUUUUAAAGGCCAUCUGAAAUUCCAUUUGUCAUGGUGGGAAGCAUUUUGGAUAUGAUGC: 2.03
CUUUGGAAAUAAUGACAUAAUAAGAAUUAGACUAUUUCUCAACUUUCUUAAGCGACUACAUCAUAUUUUAAAAUAUUAAUCCUUCAAUAAAGUGGCAAGUAUAAGAAAAU: 0.474
GGAGCUGUGGUGUGGUCUGUCCUGUAUGGUGGCCAGUGCUUUCUGCCAGCAUUUCUGGAUGGAUAUAGGGACUAUCAUUAGUAUCCUAAUACACGGUGAUUUUAAAACAA: 0.235
CUGGAGGCAGCAAUUCCUCAUCCAGCUCAGGGACUCCUGACAGCCAAGGGGACAGCAAGAGGACCCAGAGCAGGGAAAGGGGUCGGGGAGUCACACAACCAAAGGUAGAC: 0.581
UGCUGUAAUCUAGUUGCUCUGGUAUAGAAGAGAACCCCAUGGGGCUGUGGGAGAGACAAUUCAGUGGCAGCCCACUGGCUUCUCUACCCAUUCCACAGGAACCCUAUUCC: 0.302
UAAGGUGGUGACAUUUAACACAGUUACUCUGUCUUUUUUCAGAUUAUGGGUAUUUAUCCUCUAUUAGUAUCAUAUCGUUUUCAUUCCACUUUAGAAACACAGUUACCAGU: 0.398
UGGAAAGCAUGGGCCAUUGUCACCCACACGGGGCCAGGCCAGGGCUAGAGGGGUGUGUGGUAGGUCGAUAAGACUGUGCCAGUGCCUGCGGAACCAACACACCCUGCUGC: 16.5
UGCUCUGUAGUUUAUGCCAAGACCACAAUGACUCUUUACCCCAAGAAAGUCUCUUGACUUAAGUUCUGAGACUCCAAAGACUGCACAUAAGUUUUAGACAUACAAGUGUC: 0.403
GGACCCAGGGUCGCCUCAGGCAAAUGUGGUUGGUCGGUGGCUCCAAAGGCGAGAGGUUUUUCUUCCUGGCCCCCCAGUGUGGGUUUCUUCCUGUGAACUCACUCUGUGCC: 0.361
CAGGGACCAUUAGUGUCUUUUUAAAAUUACAUUUUAUUUCACAUUUCAUAAUUCAGAAGUAAACCUUUCAUAGGAAAAAUACUGAGCUGUGCUAAUGUAGCUGAUUUUAG: 0.354
GCUUUGUUUUGUUUUGUUUUUUUGAGACAGGGAUUCUCUGUGUAGCCCUGGCUGGCCUGGAACUCACUCUGUGGACCAGGCUGGUCUCCAACUCAGAUCCUCCUGCCUCU: 0.59
GGAUUCAAGCUGUCUUUGCACUAGCUCUAAAGAAGAUUUUCUUCUGGUUUUAGAGAACUAAUUUUGUUUUAGCAUUAAACUGUUGAACUUUUUUUUGUACUUAGAAAACC: 0.398

Series 2 — technique: protein binding microarray; form: double-stranded DNA, one strand shown; matrix: in vitro; tested at: not given; relative to: not given; direction: higher = stronger binding; quantity: E-score
Target: Histone acetyltransferase KAT6A, winged helix 2, GST fusion (KAT6A, Homo sapiens, UniProt Q92794, residues 85-181)
Notes: 8-mer, flanks averaged, mean of 2 arrays, mostly near background
Residues (chain): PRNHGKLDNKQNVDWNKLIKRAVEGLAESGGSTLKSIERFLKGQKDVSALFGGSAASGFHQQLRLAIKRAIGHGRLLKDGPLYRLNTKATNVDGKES
CCAAGGTA: -0.0571
AACATGCT: 0.00127
ATCCCACA: -0.0794
AAGAGAGA: -0.00571
CATAGTAG: -0.195
GGCCGCAC: 0.0722
CGTGATAA: 0.00061
AAATTGTT: 0.0924
TACTCAAA: 0.0784
AGTATATA: 0.0734
AGGCCTCG: -0.132
CCCCTCAA: 0.0982
GATTCTGC: 0.17
GTGGACAA: 0.0242
AGAACCTG: -0.0893
CTTAGAAA: 0.102
TACCTCAA: -0.0756
CTAAATGC: -0.0775
ATTGCAAC: -0.0361
GCCTTCCC: 0.00809
AGAACCCG: -0.128
CGCAGGGA: 0.0773
AATGCCGC: 0.204
CTCCCACC: 0.00375
AGCCTACT: -0.0741

Series 3 — technique: DHFR PCA, deep sequencing; matrix: yeast; together with: (+)-ABA 0.032 µM; relative to: wild-type fitted maximum; direction: higher = stronger binding; quantity: relative binding score
Target: ABI1, truncated, D143A, DHFR fusion (Arabidopsis thaliana)
Notes: methotrexate growth selection, single substitutions
Parent: PYL1, truncated, DHFR fusion (Arabidopsis thaliana); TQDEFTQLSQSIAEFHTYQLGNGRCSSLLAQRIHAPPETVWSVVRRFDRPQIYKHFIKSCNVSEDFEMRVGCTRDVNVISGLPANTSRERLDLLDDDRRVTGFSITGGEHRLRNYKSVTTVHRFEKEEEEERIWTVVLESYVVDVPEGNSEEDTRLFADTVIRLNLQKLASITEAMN
R88A: 1.4%
I12S: -0.187%
Y18R: -1.3%
E67L: 0.34%
G108F: -5.96%
D97Q: 46.5%
S150L: 3.62%
T73P: -0.615%
D144R: -1.52%
D75N: 20%
E151D: 9.54%
E151Y: 9.32%
V100M: 6.16%
V143S: -2.48%

Series 4 — target: CCNA1, cyclin fold, Cln2 fusion (human); technique: yeast growth competition, sequencing; matrix: yeast; notes: weak parent motif; relative to: not given; direction: higher = stronger binding; quantity: normalised enrichment score
Parent: PKMYT1 docking peptide (human); SFEPRNLLSLFED
P4K: 0.402
P4D: -0.013
L7A: 0.386
P4E: 0.107
L8S: 0.0151
L7T: 0.393
L8K: 0.311
D13H: -0.0799
F11T: 0.133
E12C: 0.165
N6R: 0.368
F2W: -0.118
F2G: 0.198
E3H: 0.287
E3D: 0.18
L7Q: 0.285
E3F: -0.0202
D13P: 0.231
F2A: 0.136
F11C: 0.159
N6V: 0.188
L10G: 0.291
N6C: 0.452
L8C: 0.278
F11L: 0.0244

Series 5 — technique: RNA Bind-n-Seq; form: RNA; matrix: in vitro; tested at: 1 µM; notes: whole 134-nt RNA, ends assumed; together with: 150 mM KCl; relative to: input library; direction: higher = stronger binding; quantity: log2 enrichment
Target: Ras GTPase-activating protein-binding protein 1, RRM domain (G3BP1, Homo sapiens, UniProt Q13283)
UniProt Q13283, sequence (whole entry, looked up): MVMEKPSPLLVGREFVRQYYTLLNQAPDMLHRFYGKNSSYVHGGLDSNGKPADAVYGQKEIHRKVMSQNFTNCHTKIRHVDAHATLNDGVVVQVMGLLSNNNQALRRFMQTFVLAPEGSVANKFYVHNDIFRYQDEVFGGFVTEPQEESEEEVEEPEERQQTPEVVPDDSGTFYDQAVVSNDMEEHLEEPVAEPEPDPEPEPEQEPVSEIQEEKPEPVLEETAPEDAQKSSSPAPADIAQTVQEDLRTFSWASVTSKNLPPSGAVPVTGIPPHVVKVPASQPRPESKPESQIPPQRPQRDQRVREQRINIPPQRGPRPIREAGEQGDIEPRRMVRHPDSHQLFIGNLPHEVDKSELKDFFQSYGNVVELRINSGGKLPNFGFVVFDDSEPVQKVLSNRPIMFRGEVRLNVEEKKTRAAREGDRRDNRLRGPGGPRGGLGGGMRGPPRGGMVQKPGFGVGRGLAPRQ
All sequences stand within: GGGAGUUCUACAGUCCGACGAUC … UGGAAUUCUCGGGUGUCAAGG
UUCGUUUUUUUCCUUAGUCUGAAGUUGCAGCCGGAGUGAAGAAGAGCGGACCGCUGCCCAGUGCUGAGGUAGAGUGUCGGAUCUGUUUUC: -0.321
CUGUGCUACACAUCGUAUGUACCGAAUCGGCCCCCCCGGGCCCCCCCGGGGCCCCCCCGGGGAAAGUAUUAUGUUACGCCGUUCGGAUCU: -0.559
CCUGUGCUACACAUCGUAUGUACCGAAUCGGGUUUUUUUGGGUUUUUUUGGGAAAAAGGGAAAGUAUUAUGUUACGCCGUUCGGAUCUGC: -0.209
UCAAGUCCUGUGCUACACAUCGUAUGUACCGAAUCGGCCCGGCCCGGCCCGGGGAAAGUAUUAUGUUACGCCGUUCGGAUCUGCACUUCC: -0.898
UCCUCAAGUCCUGUGCUACACAUCGUAUGUACCGAAUCGGAGGAGGGGAGGAAAGUAUUAUGUUACGCCGUUCGGAUCUGCACUUCCAGC: -0.276
GCAGGAAGUAAAAACAAAUGGAAAUGCUUCGGAUAGUGGCAGGGGUGGGGCUUGCUAAGGAAAGGGUGGGAUGGGAGUGGGUAAAGAGUU: 1.22
UGGGAGGUGGAUUUUGUUUAUUUUUUUAGCUCAUUUCCAGGGGUGGGAAUUUUUUUUUAAUAUGUGUCAUGAAUAAUGUUGUUUUUGAAA: 0.863
UCCUGUGCUACACAUCGUAUGUACCGAAUCGGGUUUGGGAAAAAAAGGGUUUUUUUGGGAAAGUAUUAUGUUACGCCGUUCGGAUCUGCA: 0.0935
CAAGUCCUGUGCUACACAUCGUAUGUACCGAAUCGGGAAAGGGUUUGGGAAAGGGAAAGUAUUAUGUUACGCCGUUCGGAUCUGCACUUC: 0.711
UCCUGUGCUACACAUCGUAUGUACCGAAUCAAACCCCCCCAAAUUUUUAAAUUUUUAAAAAAGUAUUAUGUUACGCCGUUCGGAUCUGCA: -0.427

A few entries again (series 4):
L7T: 0.393
L8S: 0.0151
N6V: 0.188
F2A: 0.136
E3H: 0.287
D13P: 0.231
F11C: 0.159
P4D: -0.013
E3D: 0.18
F11L: 0.0244
P4K: 0.402
D13H: -0.0799
N6C: 0.452
F11T: 0.133
